Measured values pooled from the literature.
Each line is one published result; not all experiments were run side by side. ± marks the error that the study gave.
ZAP70 SH2 domains: Tyrosine-protein kinase ZAP-70, SH2 domains (ZAP70, Homo sapiens, UniProt P43403)
Chain of UniProt P43403 (whole entry, looked up): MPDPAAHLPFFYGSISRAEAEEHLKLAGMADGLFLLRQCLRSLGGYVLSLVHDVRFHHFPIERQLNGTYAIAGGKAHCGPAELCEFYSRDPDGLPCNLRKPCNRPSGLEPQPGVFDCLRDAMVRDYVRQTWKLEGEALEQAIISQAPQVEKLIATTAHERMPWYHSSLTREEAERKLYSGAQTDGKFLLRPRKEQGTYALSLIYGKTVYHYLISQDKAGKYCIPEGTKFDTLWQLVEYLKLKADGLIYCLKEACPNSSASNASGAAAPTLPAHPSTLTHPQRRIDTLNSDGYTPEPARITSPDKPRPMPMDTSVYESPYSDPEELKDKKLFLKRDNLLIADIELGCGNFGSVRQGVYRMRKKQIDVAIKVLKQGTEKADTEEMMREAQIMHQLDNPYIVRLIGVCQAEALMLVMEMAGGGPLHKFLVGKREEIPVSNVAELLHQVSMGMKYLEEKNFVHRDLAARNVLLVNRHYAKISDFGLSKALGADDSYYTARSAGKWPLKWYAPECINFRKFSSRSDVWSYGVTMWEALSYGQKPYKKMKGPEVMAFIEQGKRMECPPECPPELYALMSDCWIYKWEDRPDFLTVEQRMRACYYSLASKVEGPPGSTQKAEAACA
TXK SH2 domain: Tyrosine-protein kinase TXK, SH2 domain (TXK, Homo sapiens, UniProt P42681)
Chain of UniProt P42681 (whole entry, looked up): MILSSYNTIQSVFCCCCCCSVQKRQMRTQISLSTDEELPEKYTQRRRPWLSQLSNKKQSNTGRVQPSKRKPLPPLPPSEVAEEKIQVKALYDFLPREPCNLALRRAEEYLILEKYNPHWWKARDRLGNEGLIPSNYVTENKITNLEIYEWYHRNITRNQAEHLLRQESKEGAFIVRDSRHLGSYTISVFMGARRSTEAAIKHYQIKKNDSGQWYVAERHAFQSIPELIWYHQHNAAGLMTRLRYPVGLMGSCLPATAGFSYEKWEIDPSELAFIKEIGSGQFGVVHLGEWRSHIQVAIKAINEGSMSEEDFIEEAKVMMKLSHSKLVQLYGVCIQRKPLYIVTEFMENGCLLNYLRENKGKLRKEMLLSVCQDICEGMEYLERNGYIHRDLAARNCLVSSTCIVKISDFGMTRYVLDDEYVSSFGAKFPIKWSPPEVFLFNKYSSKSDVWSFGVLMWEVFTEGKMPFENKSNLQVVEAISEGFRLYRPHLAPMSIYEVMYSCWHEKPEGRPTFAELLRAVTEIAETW
Chain of UniProt P00512 (whole entry, unmodified, looked up): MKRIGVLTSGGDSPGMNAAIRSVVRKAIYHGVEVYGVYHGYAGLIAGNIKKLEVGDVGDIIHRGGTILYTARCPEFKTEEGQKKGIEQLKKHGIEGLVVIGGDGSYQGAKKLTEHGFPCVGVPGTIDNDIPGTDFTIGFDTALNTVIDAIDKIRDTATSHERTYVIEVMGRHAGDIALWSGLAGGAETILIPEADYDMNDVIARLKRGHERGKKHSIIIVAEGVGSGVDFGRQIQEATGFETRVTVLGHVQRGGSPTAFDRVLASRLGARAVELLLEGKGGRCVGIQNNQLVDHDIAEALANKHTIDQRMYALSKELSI
Chain of UniProt P22748 (whole entry, looked up): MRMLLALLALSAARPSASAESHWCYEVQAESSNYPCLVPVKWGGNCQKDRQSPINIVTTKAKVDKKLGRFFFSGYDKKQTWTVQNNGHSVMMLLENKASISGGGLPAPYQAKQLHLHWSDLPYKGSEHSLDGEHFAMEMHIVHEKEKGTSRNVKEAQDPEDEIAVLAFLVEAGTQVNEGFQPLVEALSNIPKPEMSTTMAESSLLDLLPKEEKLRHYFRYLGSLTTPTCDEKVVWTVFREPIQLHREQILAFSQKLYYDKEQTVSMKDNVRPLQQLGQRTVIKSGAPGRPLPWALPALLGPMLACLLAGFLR
Chain of UniProt P52630 (whole entry, looked up): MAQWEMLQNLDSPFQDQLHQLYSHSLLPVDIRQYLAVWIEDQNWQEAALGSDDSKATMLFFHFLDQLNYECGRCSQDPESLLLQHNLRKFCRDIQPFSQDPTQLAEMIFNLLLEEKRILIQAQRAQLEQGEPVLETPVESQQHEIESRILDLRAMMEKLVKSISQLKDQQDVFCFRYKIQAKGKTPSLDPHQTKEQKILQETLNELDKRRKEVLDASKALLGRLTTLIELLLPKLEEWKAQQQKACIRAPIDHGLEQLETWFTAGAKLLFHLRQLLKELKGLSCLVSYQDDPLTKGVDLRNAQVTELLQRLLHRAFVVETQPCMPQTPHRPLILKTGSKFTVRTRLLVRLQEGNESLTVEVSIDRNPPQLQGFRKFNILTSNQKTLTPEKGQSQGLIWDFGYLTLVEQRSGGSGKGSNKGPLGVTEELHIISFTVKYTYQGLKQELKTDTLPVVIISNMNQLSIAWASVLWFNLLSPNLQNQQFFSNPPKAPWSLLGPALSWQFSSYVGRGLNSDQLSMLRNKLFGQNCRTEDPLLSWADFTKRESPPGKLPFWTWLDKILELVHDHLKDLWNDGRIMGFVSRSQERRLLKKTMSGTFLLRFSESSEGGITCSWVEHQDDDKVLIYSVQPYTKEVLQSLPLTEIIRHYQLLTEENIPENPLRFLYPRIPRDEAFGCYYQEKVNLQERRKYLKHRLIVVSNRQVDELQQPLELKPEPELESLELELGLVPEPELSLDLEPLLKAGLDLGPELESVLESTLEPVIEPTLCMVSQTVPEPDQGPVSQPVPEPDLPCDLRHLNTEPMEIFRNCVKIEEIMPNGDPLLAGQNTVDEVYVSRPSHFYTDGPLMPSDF
Chain of UniProt P15104 (whole entry, unmodified, looked up): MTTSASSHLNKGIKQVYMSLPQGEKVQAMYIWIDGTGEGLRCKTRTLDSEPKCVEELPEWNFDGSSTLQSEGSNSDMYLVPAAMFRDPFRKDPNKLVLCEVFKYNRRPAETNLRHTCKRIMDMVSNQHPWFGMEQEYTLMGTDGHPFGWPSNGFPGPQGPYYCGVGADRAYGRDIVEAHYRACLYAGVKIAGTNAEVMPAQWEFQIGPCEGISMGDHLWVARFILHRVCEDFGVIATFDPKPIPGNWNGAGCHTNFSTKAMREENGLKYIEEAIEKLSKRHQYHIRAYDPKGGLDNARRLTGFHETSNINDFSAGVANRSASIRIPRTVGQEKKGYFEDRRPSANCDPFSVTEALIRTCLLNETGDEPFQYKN
Chain of UniProt Q92PC8 (whole entry, unmodified, looked up): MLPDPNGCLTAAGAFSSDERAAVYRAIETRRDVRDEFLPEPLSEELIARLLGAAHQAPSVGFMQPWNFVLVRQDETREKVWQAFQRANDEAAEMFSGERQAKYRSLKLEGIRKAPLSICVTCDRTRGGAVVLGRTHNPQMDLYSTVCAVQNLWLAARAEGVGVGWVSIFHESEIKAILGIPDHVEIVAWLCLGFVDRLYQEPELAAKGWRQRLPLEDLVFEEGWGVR
Chain of UniProt P08510 (whole entry, unmodified, looked up): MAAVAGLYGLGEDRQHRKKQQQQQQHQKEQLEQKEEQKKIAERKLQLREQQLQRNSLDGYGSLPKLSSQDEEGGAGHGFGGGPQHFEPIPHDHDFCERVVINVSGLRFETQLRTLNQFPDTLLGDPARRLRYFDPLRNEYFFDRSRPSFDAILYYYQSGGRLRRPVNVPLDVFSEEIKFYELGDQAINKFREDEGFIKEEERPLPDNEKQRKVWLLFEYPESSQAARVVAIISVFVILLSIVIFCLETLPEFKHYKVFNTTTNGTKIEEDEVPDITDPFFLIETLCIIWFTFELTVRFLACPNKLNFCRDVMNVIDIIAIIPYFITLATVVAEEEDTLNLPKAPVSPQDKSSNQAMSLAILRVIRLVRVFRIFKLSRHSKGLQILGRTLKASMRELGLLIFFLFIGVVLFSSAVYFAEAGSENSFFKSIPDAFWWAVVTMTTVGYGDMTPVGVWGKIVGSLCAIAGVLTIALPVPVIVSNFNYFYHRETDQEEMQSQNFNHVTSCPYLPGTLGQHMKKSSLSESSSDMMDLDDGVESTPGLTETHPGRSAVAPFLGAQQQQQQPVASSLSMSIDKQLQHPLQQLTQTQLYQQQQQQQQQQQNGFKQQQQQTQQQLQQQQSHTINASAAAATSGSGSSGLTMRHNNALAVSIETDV

| SMILES | target | assay | system | conditions | Kd [µM] |
| --- | --- | --- | --- | --- | --- |
| CC[C@H](C)[C@H](NC(=O)c1ccc2c(c1)C(=O)OC21c2ccc(N(C)C)cc2Oc2cc(N(C)C)ccc21)C(=O)N[C@@H](CCC(=O)O)C(=O)N[C@@H](CO)C(=O)N[C@@H](CO)C(=O)N[C@@H](CC(N)=O)C(=O)N[C@@H](Cc1ccc(O)cc1)C(=O)N[C@@H](CCSC)C(=O)N[C@@H](C)C(=O)N1CCC[C@H]1C(=O)N[C@@H](Cc1ccc(OP(=O)(O)O)cc1)C(=O)N[C@@H](CC(=O)O)C(=O)N[C@@H](CC(N)=O)C(=O)N[C@@H](Cc1ccc(O)cc1)C(=O)N[C@H](C(=O)N1CCC[C@H]1C(=O)N[C@@H](CO)C(=O)N[C@@H](C)C(=O)N[C@@H](CC(=O)O)C(=O)O)C(C)C | ZAP70 SH2 domains | binding | – | – | 1.11 |
| Cc1cc2nc3c(=O)[nH]c(=O)nc-3n(C[C@H](O)[C@H](O)[C@H](O)COP(=O)(O)O)c2cc1C | 5,6-dimethylbenzimidazole synthase (bluB, Rhizobium meliloti, UniProt Q92PC8, R34Q) | binding | Sinorhizobium meliloti | – | 11 ± 3 |
| CSCC[C@H](N)C(=O)N[C@@H](C)C(=O)N[C@@H](C)C(=O)N[C@H](C(=O)N[C@@H](C)C(=O)NCC(=O)N[C@@H](CC(C)C)C(=O)N[C@@H](Cc1ccc(O)cc1)C(=O)NCC(=O)N[C@@H](CC(C)C)C(=O)NCC(=O)N[C@@H](CCC(=O)O)C(=O)N[C@@H](CC(=O)O)C(=O)N[C@@H](CCCNC(=N)N)C(=O)N[C@@H](CCC(N)=O)C(=O)N[C@@H](Cc1c[nH]cn1)C(=O)N[C@@H](CCCNC(=N)N)C(=O)N[C@@H](CCCCN)C(=O)N[C@@H](CCCCN)C(=O)N[C@@H](CCC(N)=O)C(N)=O)C(C)C | Sh, DEL6-46 (Drosophila melanogaster, UniProt P08510) | ion current, blocker, inside-out patch clamp | Xenopus oocytes | range over 50 µM, pH 7.0, 22–24 °C, at 0 mV | 5.1 |
| CC1(C)O[C@@H]2[C@@H](CO[C@@]3(COS(N)(=O)=O)OC(C)(C)O[C@@H]23)O1 | CA4 (Homo sapiens, UniProt P22748) | binding | – | – | 0.045 |
| C=C(OP(=O)(O)O)C(=O)O | pfkA (Geobacillus stearothermophilus, UniProt P00512, T156A) | – | – | – | 2.1 ± 0.1 |
| CSCC[C@H](NC(=O)[C@H](Cc1ccc(OP(=O)(O)O)cc1)NC(=O)CNC(=O)CNC(=O)[C@H](CC(=O)O)NC(=O)[C@H](CO)NC(=O)[C@H](CCC(=O)O)NC(=O)CNC(=O)[C@@H](NC(=O)[C@H](CC(C)C)NC(=O)[C@H](CO)NC(=O)c1ccc2c(c1)C(=O)OC21c2ccc(N(C)C)cc2Oc2cc(N(C)C)ccc21)[C@@H](C)O)C(=O)N[C@@H](CC(=O)O)C(=O)N[C@@H](CCSC)C(=O)N[C@@H](CO)C(=O)N[C@@H](CCCCN)C(=O)N[C@@H](CC(=O)O)C(=O)N[C@@H](CCC(=O)O)C(=O)N[C@@H](CC(=O)O)C(=O)O | ZAP70 SH2 domains | binding | – | – | 1.26 |
| Nc1ncnc2c1ncn2[C@@H]1O[C@H](COP(=O)(O)OP(=O)(O)O)[C@@H](O)[C@H]1O | Cell cycle histidine kinase CckA, cytoplasmic region (Caulobacter vibrioides, UniProt Q9X688) | binding, isothermal titration calorimetry | – | without c-di-GMP, apparent | 530 |
| Cn1c2cccc(=O)c-2nc2ccccc21 | TetR-family regulator NalD (Pseudomonas aeruginosa, UniProt Q9HY46, F174A/H167A/N175A) | – | – | – | 18.7 |
| CC(C)C[C@H](NC(=O)[C@@H](NC(=O)[C@H](CO)NC(=O)[C@H](CO)NC(=O)[C@@H](NC(=O)[C@H](CC(=O)O)NC(=O)[C@H](CC(C)C)NC(=O)[C@@H]1CCCN1C(=O)[C@H](CO)NC(=O)c1ccc2c(c1)C(=O)OC21c2ccc(N(C)C)cc2Oc2cc(N(C)C)ccc21)[C@@H](C)O)C(C)C)C(=O)N[C@@H](Cc1ccc(OP(=O)(O)O)cc1)C(=O)N[C@H](C(=O)N[C@@H](C)C(=O)N[C@H](C(=O)N[C@@H](CCC(N)=O)C(=O)N1CCC[C@H]1C(=O)N[C@@H](CC(N)=O)C(=O)N[C@@H](CCC(=O)O)C(=O)N[C@@H](CC(=O)O)C(=O)O)C(C)C)[C@@H](C)O | TXK SH2 domain | binding | – | – | 1.14 |
| CN(CC(=O)O)C(=N)NP(=O)(O)O | CKMT1A (Homo sapiens, UniProt P12532, E265Q) | microscale thermophoresis | – | pH 8.5, E227Q mutant, no substrate | 119 ± 4 |
| CC[C@H](C)[C@H](NC(=O)[C@H](Cc1ccccc1)NC(=O)CNC(=O)[C@H](Cc1c[nH]c2ccccc12)NC(=O)[C@@H]1CSC[C@@H](NC(=O)[C@H](Cc2ccc(O)cc2)NC(=O)[C@H](Cc2c[nH]c3ccccc23)NC(=O)[C@H](CC(C)C)NC(=O)CNC(=O)[C@H](CCCNC(=N)N)NC(=O)c2ccc3c(c2)C(=O)OC32c3ccc(O)cc3Oc3cc(O)ccc32)C(=O)N[C@@H](CC(C)C)C(=O)N[C@@H](CO)C(=O)N1)C(=O)NCC(=O)N[C@@H](CCCNC(=N)N)C(=O)N[C@@H](CCCNC(=N)N)C(=O)NCCCOCCOCCOCCCNC(=O)CCC(=O)NCCCOCCOCCOCCCNC(=O)CCC(=O)NCCCOCCOCCOCCCNC(=O)CCC(=O)N[C@@H](C)C(=O)O | srtA (Staphylococcus aureus, UniProt Q2FV99) | binding, fluorescence polarization | – | pH 7.5 | 4.02 ± 0.5 |
| CC[C@H](C)[C@H](NC(=O)[C@H](Cc1ccc(OP(=O)(O)O)cc1)NC(=O)[C@H](CCC(=O)O)NC(=O)[C@H](Cc1c[nH]cn1)NC(=O)CNC(=O)[C@H](CC(=O)O)NC(=O)[C@H](CO)NC(=O)[C@H](CO)NC(=O)[C@@H](NC(=O)[C@H](CO)NC(=O)[C@H](CCC(=O)O)NC(=O)c1ccc2c(c1)C(=O)OC21c2ccc(N(C)C)cc2Oc2cc(N(C)C)ccc21)C(C)C)C(=O)N[C@@H](Cc1ccc(O)cc1)C(=O)N[C@H](C(=O)N[C@@H](CC(=O)O)C(=O)N1CCC[C@H]1C(=O)N[C@@H](CCSC)C(=O)N[C@@H](CCC(N)=O)C(=O)N[C@@H](CC(=O)O)C(=O)O)C(C)C | Signal transducer and activator of transcription 2, SH2 domain (Homo sapiens, UniProt P52630) | binding | – | – | 1.58 |
| CO[C@@H]1[C@@H](OC(N)=O)[C@@H](O)[C@H](Oc2ccc3c(O)c(NC(=O)c4ccc(O)c(CC=C(C)C)c4)c(=O)oc3c2C)OC1(C)C | TetR-family regulator NalD (Pseudomonas aeruginosa, UniProt Q9HY46) | microscale thermophoresis | – | – | 36.8 |
| O=C(CO)[C@@H](O)[C@H](O)[C@H](O)COP(=O)(O)O | pfkA (Geobacillus stearothermophilus, UniProt P00512, H160A) | – | – | – | 56 ± 2 |
| O=C1c2ccccc2C(=O)c2ccccc21 | Reaction center protein L chain, QB site (pufL, Cereibacter sphaeroides, UniProt P0C0Y8) | QB site binding, competitive inhibitor | – | – | > 100 |
| CSCC[C@H](NC(=O)CNC(=O)[C@H](Cc1ccccc1)NC(=O)[C@H](CC(=O)O)NC(=O)CNC(=O)c1ccc2c(c1)C(=O)OC21c2ccc(N(C)C)cc2Oc2cc(N(C)C)ccc21)C(=O)N[C@@H](CO)C(=O)N[C@@H](CCCNC(=N)N)C(=O)N[C@@H](CC(=O)O)C(=O)N[C@H](C(=O)N[C@@H](Cc1ccc(OP(=O)(O)O)cc1)C(=O)N[C@@H](CO)C(=O)N[C@H](C(=O)N[C@@H](CC(=O)O)C(=O)N[C@@H](Cc1ccc(O)cc1)C(=O)N[C@@H](Cc1ccc(O)cc1)C(=O)N[C@@H](CCCNC(=N)N)C(=O)N[C@H](C(=O)N[C@@H](CC(=O)O)C(=O)O)C(C)C)[C@@H](C)O)C(C)C | TXK SH2 domain | binding | – | – | 1.32 |
| CC[C@H](CO)Nc1nc(NCc2ccc(-c3ccccn3)cc2)c2ncn(C(C)C)c2n1 | DYRK1B (Homo sapiens, UniProt Q9Y463) | binding, competition affinity chromatography | SH-SY5Y cell extract | – | 4.88 |
| CSCC[C@H](NC(=O)[C@H](CC(C)C)NC(=O)[C@H](C)NC(=O)[C@H](CCCNC(=N)N)NC(=O)[C@H](Cc1ccc(OP(=O)(O)O)cc1)NC(=O)[C@H](Cc1ccccc1)NC(=O)[C@H](CC(N)=O)NC(=O)[C@H](CO)NC(=O)[C@H](CC(=O)O)NC(=O)[C@@H](NC(=O)[C@@H]1CCCN1C(=O)[C@H](CO)NC(=O)[C@@H]1CCCN1C(=O)[C@H](CC(C)C)NC(=O)c1ccc2c(c1)C(=O)OC21c2ccc(N(C)C)cc2Oc2cc(N(C)C)ccc21)[C@@H](C)O)C(=O)N[C@@H](CC(=O)O)C(=O)N[C@@H](CCC(=O)O)C(=O)N[C@@H](CCC(=O)O)C(=O)N[C@@H](CC(=O)O)C(=O)O | ZAP70 SH2 domains | binding | – | – | 1.65 |
| CC(C)C[C@@H]1NC(=O)CNC(=O)[C@H](CC(C)C)NC(=O)[C@@H]2CCCN2C(=O)[C@H](CC(=O)O)NC(=O)[C@H](Cc2ccc(O)cc2)NC(=O)CNC(=O)[C@@H](Cc2ccc(O)cc2)NC(=O)CSC[C@@H](C(N)=O)NC(=O)[C@H](C)NC(=O)[C@H](Cc2ccccc2)NC(=O)[C@H](Cc2ccc(O)cc2)NC(=O)[C@H](CCCCN)NC1=O | VPS35/VPS29 (Homo sapiens, UniProt Q96QK1+Q9UBQ0) | binding, ITC | – | 25 °C, heterodimer | 0.029 ± 0.002 |
| C[N+](C)(C)[C@@H](Cc1c[nH]c(=S)[nH]1)C(=O)[O-] | egtUBC (Streptococcus pneumoniae, UniProt A0A0H2ZQB9, K242A) | binding | – | – | > 100 |
| CC[C@H](C)[C@H](NC(=O)[C@H](CC(=O)O)NC(=O)[C@H](C)NC(=O)[C@H](Cc1ccc(OP(=O)(O)O)cc1)NC(=O)[C@H](CCCCN)NC(=O)[C@@H](NC(=O)[C@H](CC(=O)O)NC(=O)CNC(=O)[C@H](CCCCN)NC(=O)[C@H](CCSC)NC(=O)[C@H](CC(=O)O)NC(=O)[C@H](CC(C)C)NC(=O)[C@H](CCSC)NC(=O)c1ccc2c(c1)C(=O)OC21c2ccc(N(C)C)cc2Oc2cc(N(C)C)ccc21)C(C)C)C(=O)N[C@@H](CCC(=O)O)C(=O)N[C@@H](CO)C(=O)N[C@@H](CO)C(=O)N[C@@H](CC(N)=O)C(=O)N[C@@H](CC(=O)O)C(=O)O | ZAP70 SH2 domains | binding | – | – | 1.26 |
| CC[C@H](C)[C@H](NC(=O)[C@H](C)NC(=O)[C@H](CCC(=O)O)NC(=O)[C@H](CC(=O)O)NC(=O)[C@H](Cc1ccccc1)NC(=O)[C@@H](NC(=O)[C@H](C)N)C(C)C)C(=O)N[C@@H](CC(C)C)C(=O)N[C@H](C(=O)N[C@H](C(=O)N[C@@H](Cc1ccccc1)C(=O)N[C@@H](Cc1c[nH]cn1)C(=O)N1CCC[C@H]1C(=O)N[C@@H](CCCCN)C(=O)O)[C@@H](C)CC)[C@@H](C)O | GLUL (Homo sapiens, UniProt P15104, P208A) | SPR | – | P227A mutant | 662 |

Some of these lines once more:
| SMILES | target | assay | system | conditions | Kd [µM] |
| --- | --- | --- | --- | --- | --- |
| Cc1cc2nc3c(=O)[nH]c(=O)nc-3n(C[C@H](O)[C@H](O)[C@H](O)COP(=O)(O)O)c2cc1C | 5,6-dimethylbenzimidazole synthase (bluB, Rhizobium meliloti, UniProt Q92PC8, R34Q) | binding | Sinorhizobium meliloti | – | 11 ± 3 |
